Results gathered from unrelated publications.
Every numbered part comes from another study and shows a few of its results, in no order.

Set 1
Target: Sal-like protein 4, full length isoform A (SALL4, Homo sapiens, UniProt Q9UJQ4, residues 1-1053)
UniProt Q9UJQ4, sequence (whole entry, looked up): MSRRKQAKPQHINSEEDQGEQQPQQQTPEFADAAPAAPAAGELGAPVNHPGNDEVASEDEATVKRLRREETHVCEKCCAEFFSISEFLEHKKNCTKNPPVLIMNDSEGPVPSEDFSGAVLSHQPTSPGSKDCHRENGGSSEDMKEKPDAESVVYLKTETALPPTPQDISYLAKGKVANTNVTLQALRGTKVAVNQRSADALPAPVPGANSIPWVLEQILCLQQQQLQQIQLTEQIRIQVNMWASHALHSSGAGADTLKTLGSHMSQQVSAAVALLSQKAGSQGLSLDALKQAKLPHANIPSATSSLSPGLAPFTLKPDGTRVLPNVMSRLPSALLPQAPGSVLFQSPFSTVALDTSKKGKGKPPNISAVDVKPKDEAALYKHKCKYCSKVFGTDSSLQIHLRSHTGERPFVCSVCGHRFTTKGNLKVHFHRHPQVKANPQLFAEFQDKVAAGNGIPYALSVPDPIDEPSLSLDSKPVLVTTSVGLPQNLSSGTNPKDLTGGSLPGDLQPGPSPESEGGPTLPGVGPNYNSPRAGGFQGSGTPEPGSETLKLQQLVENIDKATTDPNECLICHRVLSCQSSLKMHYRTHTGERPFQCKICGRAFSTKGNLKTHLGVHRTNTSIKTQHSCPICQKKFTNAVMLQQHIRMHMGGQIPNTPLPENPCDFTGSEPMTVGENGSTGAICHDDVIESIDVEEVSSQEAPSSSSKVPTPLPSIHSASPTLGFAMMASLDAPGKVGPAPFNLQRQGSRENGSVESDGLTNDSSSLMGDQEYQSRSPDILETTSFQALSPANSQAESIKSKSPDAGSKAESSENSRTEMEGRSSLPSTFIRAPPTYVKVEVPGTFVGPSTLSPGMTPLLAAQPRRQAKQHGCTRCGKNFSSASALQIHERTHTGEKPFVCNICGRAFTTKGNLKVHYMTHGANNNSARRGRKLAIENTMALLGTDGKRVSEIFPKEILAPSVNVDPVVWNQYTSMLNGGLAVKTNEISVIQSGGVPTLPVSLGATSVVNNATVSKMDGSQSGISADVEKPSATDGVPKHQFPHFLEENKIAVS
Method: universal PBM
Form: double-stranded DNA, one strand shown
Matrix: in vitro
Concentration: 600 nM
Notes: 8-mer, flanks averaged, mean of replicates
Reading: higher = stronger binding
| Sequence | E-score |
| --- | --- |
| AGCGCTAA | 0.0124 |
| AATGTTTC | 0.233 |
| CCATATCA | 0.206 |

Single results of other studies
F2 mature alpha-thrombin: Prothrombin, mature alpha-thrombin (F2, Homo sapiens, UniProt P00734)
| Substance | target | test | system | setting | how to read | quantity | result |
| --- | --- | --- | --- | --- | --- | --- | --- |
| GGTTGGTGTGGTTGG (2'F-ANA at 2 6 7 9 13 14) | F2 mature alpha-thrombin | aptamer microarray, sandwich | DNA with 2'F-ANA, in vitro | 200 nM, whole 15-mer aptamer, many near background, with: Cy3 exosite-II aptamer, 400 nM | higher = stronger binding | mean fluorescence intensity | 114 a.u. |
| GAGGACGC | Histone acetyltransferase KAT6A, winged helix 1, GST fusion (KAT6A, Homo sapiens, UniProt Q92794, residues 1-85) | protein binding microarray | double-stranded DNA, one strand shown, in vitro | not given, 8-mer, flanks averaged, mean of 2 arrays, mostly near background | baseline: not given, higher = stronger binding | E-score | 0.191 |
| GUAACCC | PABPC1L2, full length, GST fusion (mouse, UniProt A0ABA7IW68) | RNAcompete | RNA, in vitro | 20 nM, 7-mer, probes averaged, single round | baseline: mean of 7-mers, higher = stronger binding | 7-mer Z-score | -0.289 |
| GGTTGGTGTGGTTGG (2'F-ANA at 1 2 5 7 8 10 12 14 15) | F2 mature alpha-thrombin | aptamer microarray, sandwich | DNA with 2'F-ANA, in vitro | 200 nM, whole 15-mer aptamer, many near background, with: Cy3 exosite-II aptamer, 400 nM | higher = stronger binding | mean fluorescence intensity | 52.1 a.u. |
| PhoQ, residues 284 288 289 292 302 303 AGCYAI | PhoP, residues 12 14 15 18 19 VHSCL (Escherichia coli, UniProt P23836) | Sort-seq, refers to: YFP reporter | E. coli | PhoQ-PhoP variant library, with: 10 µM Mg2+ | baseline: high Mg2+ state, higher = stronger signaling | fold induction | 2.32 |

For quick reference, copied from above (single results of other studies):
| Substance | target | test | system | setting | how to read | quantity | result |
| --- | --- | --- | --- | --- | --- | --- | --- |
| GUAACCC | PABPC1L2, full length, GST fusion (mouse, UniProt A0ABA7IW68) | RNAcompete | RNA, in vitro | 20 nM, 7-mer, probes averaged, single round | baseline: mean of 7-mers, higher = stronger binding | 7-mer Z-score | -0.289 |
